Published values collected from several papers.
± marks the error that the study gave.

CNS(=O)(=O)Nc1nccc(Cc2c(C)c3ccc(Oc4ncccc4F)cc3oc2=O)c1F  IC50 (ES-2; cell viability; 7 days): > 1 µM
CC(C)(C)c1cnc(CSc2cnc(NC(=O)C3CCN(C(=O)CCCCCCN4Cc5cc6c(cc5C4)C(=O)N(C4CCC(=O)NC4=O)C6=O)CC3)s2)o1 (stereo not drawn)  IC50 (SK-UT-1; cell growth or viability, MTT): 0.515 µM
CCOc1cncc(-c2ccc(NC(=O)C3(c4ccnc(NS(=O)(=O)C5CC5)n4)CCOCC3)nc2)n1  IC50 (DLD-1; cell growth or viability, ATP luminescence; 72 h): 10 µM
CC[C@H](C)[C@H](NC(=O)[C@H](CCCCN)NC(=O)[C@H](Cc1ccccc1)NC(=O)[C@H]1CCC[C@@H]1NC(=O)CN)C(=O)N[C@H](CC(=O)N[C@@H](CCCCN)C(=O)N[C@@H](CCCCN)C(=O)N[C@H]1CCC[C@@H]1C(=O)N[C@@H](C)C(=O)N[C@@H](CCCCN)C(=O)N[C@@H](CO)C(=O)N[C@H](CC(N)=O)Cc1ccccc1)[C@@H](C)CC  IC50 (NIH 3T3; cytotoxicity): 64.6 µg/mL
COc1cc(-c2cn(C)c(=O)c3cnccc23)c(OC)cc1Cn1ccnc1  IC50 (EOL1; cell growth or viability, ATP luminescence): 1.25 µM
CC#CC#C/C=C1/O[C@]2(CC[C@H](OC(C)=O)CO2)[C@@H](O)[C@@H]1OC(=O)CC(C)C (stereo in doubt)  IC50 (RAW264.7; NO release, inhibitor, Griess; LPS-stimulated): 26 µM
CC(=O)OC[C@H]1O[C@@H](Oc2ccc(C#[C][Pt+])cc2)[C@H](OC(C)=O)[C@@H](OC(C)=O)[C@@H]1OC(C)=O.O=S(=O)([O-])C(F)(F)F.c1ccc(-c2cccc(-c3ccccn3)n2)nc1  IC50 (PLC; cell growth or viability; 48 h): > 100 µM
COc1cc(N2CCOCC2)ccc1Nc1ncc(Cl)c(Nc2ccccc2NS(C)(=O)=O)n1  IC50 (PC-9 EGFR del19/T790M/C797S; cell growth, MTT; 72 h): 0.24 ± 0.06 µM
NCc1ccc2c(c1)CN(C1CCC(=O)NC1=O)C2=O (stereo not drawn)  IC50 (Huh-7; cell growth or viability, ATP luminescence): 0.965 µM
C[C@@]1(CO)CC[C@]2(CO)CC[C@]3(C)C(=CCC4[C@@](C)(CCC(=O)O)C([C@@](C)(O)CO)CC[C@]43C)[C@@H]2C1 (stereo partly drawn)  IC50 (RAW264.7; NO release, inhibitor, Griess; LPS-stimulated): > 100 µM
Cc1ccc([N+](=O)[O-])cc1S(=O)(=O)N(C)/N=C/c1cnc2ccc(Br)cn12  IC50 (COLO 205; cell viability, MTS): 2.18 µM
NCCOc1cc(NC(=O)c2cc(Cl)cc(C(=O)Nc3cc(OCCN)c4ccccc4n3)n2)nc2ccccc12  IC50 (WI-38; cell growth or viability, ATP luminescence; 72 h): 1.6 µM
CC[C@H](C)[C@H](NC(=O)[C@H](CCCCN)NC(=O)[C@H](CCCCN)NC(=O)C[C@@H](NC(=O)[C@@H](NC(=O)[C@H](CCCCN)NC(=O)[C@H](Cc1ccccc1)NC(=O)C[C@H](CC(C)C)NC(=O)CN)[C@@H](C)CC)[C@@H](C)CC)C(=O)N[C@@H](C)CC(=O)N[C@@H](CCCCN)C(=O)N[C@@H](CO)C(=O)N[C@@H](Cc1ccccc1)C(N)=O  IC50 (NIH 3T3; cytotoxicity): 90 µg/mL
CC(=O)NCCOCCOCCNC(=O)c1cc(C(=O)N2CCNCCNCCNCC2)c(O)c(C(=O)N2CCNCCNCCNCC2)c1  IC50 (WI-38; cell growth or viability, MTT; 24 h): > 1000 µM
COc1cc(-c2cc(C(C)=O)n3ccccc23)cc(OC)c1Cn1ccnc1  IC50 (MOLM-13; cell growth or viability, ATP luminescence): 1.24 µM
CC(C)C[C@H](NC(=O)CN)C(=O)N[C@H]1CCC[C@@H]1C(=O)N[C@@H](CCCCN)C(=O)N[C@@H](CC(C)C)C(=O)N[C@@H](C)CC(=O)N[C@@H](CCCCN)C(=O)N[C@@H](CCCCN)C(=O)N[C@H]1CCC[C@@H]1C(=O)N[C@@H](CC(C)C)C(=O)N[C@@H](CCCCN)C(=O)N[C@@H](CO)CC(=O)N[C@@H](Cc1ccccc1)C(N)=O  IC50 (NIH 3T3; cytotoxicity): 238 µg/mL
Cc1cc(C)cc(COc2cc3c(cc2OCc2cc(C)cc(C)c2)[C@H]2C[C@@](O)(Cc4cn(Cc5ccc(F)cc5)nn4)C[C@@H](C)N2CC3)c1  IC50 (ASPC1; cell growth or viability, MTT): 0.486 µM
CS(=O)(=O)c1sc(NC(=O)Nc2ccc(Cl)cc2)c2c1C=CCC2  IC50 (PANC-1 NUPR1 knockout clone KO1; cell viability; 72 h): 22 µM
CC[C@H](C)[C@H](NC(=O)[C@H](CCCCN)NC(=O)[C@H]1CCC[C@@H]1NC(=O)[C@H](CC(C)C)NC(=O)CN)C(=O)N[C@H](CC(=O)N[C@@H](CCCCN)C(=O)N[C@@H](CCCCN)C(=O)N[C@H]1CCC[C@@H]1C(=O)N[C@@H](CC(C)C)C(=O)N[C@@H](CCCCN)C(=O)N[C@@H](CO)CC(=O)N[C@@H](Cc1ccccc1)C(N)=O)[C@@H](C)CC  IC50 (NIH 3T3; cytotoxicity): 25.4 µg/mL
O=C(c1cc(Cc2n[nH]c(=O)c3ccccc23)ccc1F)N1CCN(C(=O)C2CC2)CC1  IC50 (DLD-1 BRCA2 knockout; cell viability): 0.017 µM
CN1CCC(N[C@@H]2CCc3[nH]c4c(C(N)=O)ccc(-c5ccccc5Cl)c4c3C2)CC1  IC50 (A-375; cell growth or viability): 0.0231 µM
O=C(NCc1cc(F)cc(F)c1)[C@@]1(O)CCN(c2ccc3[nH]ccc3c2)C1=O  IC50 (SW982; cell growth or viability): 0.11 µM
NC(=O)c1ccc(-c2ccccc2Cl)c2c3c([nH]c12)CC[C@@H](N)C3  IC50 (A-375; cell growth or viability): 0.0293 µM
Cn1ncc(-c2ccc3c(=O)[nH]nc(CN)c3c2)c1-c1c(F)c(Cl)cc(OC2CC2)c1C#N  IC50 (HCC1500; cell viability, CellTiter-Glo; 120 h): 0.06 µM
C=CC(=O)N1CCCC(n2c(=O)c3ncccc3n(Cc3ccc(Oc4ccccc4)cc3)c2=O)C1 (stereo not drawn)  IC50 (SU-DHL-1; cell growth or viability, MTT; 72 h): 12 µM
CC(C)c1ccc(N(C)c2ccc3c(c2)OCC[C@H]3CNc2cnccc2C(=O)O)cc1  IC50 (ASPC1; cell growth or viability, ATP luminescence; 7 days): 0.0668 µM
COC(=O)N1c2ccc3c(nc(Cc4ccccc4)n3[C@@H]3CCC[C@@H](C(=O)O)C3)c2CC[C@@H]1C  IC50 (MDA-MB-361; cell growth or viability, ATP luminescence; 10 days): 2.1 µM

Repeated from above:
CCOc1cncc(-c2ccc(NC(=O)C3(c4ccnc(NS(=O)(=O)C5CC5)n4)CCOCC3)nc2)n1  IC50 (DLD-1; cell growth or viability, ATP luminescence; 72 h): 10 µM
Cc1cc(C)cc(COc2cc3c(cc2OCc2cc(C)cc(C)c2)[C@H]2C[C@@](O)(Cc4cn(Cc5ccc(F)cc5)nn4)C[C@@H](C)N2CC3)c1  IC50 (ASPC1; cell growth or viability, MTT): 0.486 µM
COc1cc(-c2cc(C(C)=O)n3ccccc23)cc(OC)c1Cn1ccnc1  IC50 (MOLM-13; cell growth or viability, ATP luminescence): 1.24 µM
CN1CCC(N[C@@H]2CCc3[nH]c4c(C(N)=O)ccc(-c5ccccc5Cl)c4c3C2)CC1  IC50 (A-375; cell growth or viability): 0.0231 µM
